Published values collected from several papers.
Protocols differ between the studies behind these lines. “And” joins repeats or separate records; there may be more than shown. ± marks the error that the study gave.
ESR1: Estrogen receptor (ESR1, Homo sapiens, UniProt P03372)

Chains of the proteins cited; added tags and fusions are not shown. Residues count along the entry.
UniProt P03372, whole entry: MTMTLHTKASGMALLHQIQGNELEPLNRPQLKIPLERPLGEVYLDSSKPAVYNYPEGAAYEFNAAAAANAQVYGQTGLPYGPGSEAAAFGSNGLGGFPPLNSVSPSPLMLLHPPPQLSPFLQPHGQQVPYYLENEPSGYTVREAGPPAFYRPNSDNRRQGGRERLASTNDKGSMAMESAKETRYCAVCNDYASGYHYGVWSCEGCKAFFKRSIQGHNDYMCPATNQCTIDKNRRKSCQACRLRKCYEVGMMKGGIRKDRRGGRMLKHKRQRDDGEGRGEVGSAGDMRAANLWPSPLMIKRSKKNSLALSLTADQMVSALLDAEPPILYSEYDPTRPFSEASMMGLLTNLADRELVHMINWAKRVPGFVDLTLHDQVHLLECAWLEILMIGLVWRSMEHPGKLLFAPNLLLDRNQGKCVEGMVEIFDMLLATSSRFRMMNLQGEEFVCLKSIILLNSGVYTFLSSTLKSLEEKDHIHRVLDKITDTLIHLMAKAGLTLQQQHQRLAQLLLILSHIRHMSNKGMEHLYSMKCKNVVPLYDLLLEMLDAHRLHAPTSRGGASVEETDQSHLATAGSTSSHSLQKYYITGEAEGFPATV
UniProt A0A381MCS3, 1-451: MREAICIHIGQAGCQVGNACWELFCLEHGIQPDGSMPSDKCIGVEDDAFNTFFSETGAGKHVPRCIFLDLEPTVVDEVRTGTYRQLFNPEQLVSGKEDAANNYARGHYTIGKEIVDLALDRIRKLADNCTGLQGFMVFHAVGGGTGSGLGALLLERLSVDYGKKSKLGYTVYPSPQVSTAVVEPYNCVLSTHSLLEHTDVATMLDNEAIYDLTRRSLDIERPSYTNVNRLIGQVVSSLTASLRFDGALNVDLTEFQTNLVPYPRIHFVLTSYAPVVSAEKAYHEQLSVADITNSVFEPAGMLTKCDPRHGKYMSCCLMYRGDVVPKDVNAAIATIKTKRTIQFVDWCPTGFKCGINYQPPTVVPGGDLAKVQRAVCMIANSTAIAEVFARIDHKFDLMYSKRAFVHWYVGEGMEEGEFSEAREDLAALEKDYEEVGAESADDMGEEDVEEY
UniProt A4HTR0, 1-443: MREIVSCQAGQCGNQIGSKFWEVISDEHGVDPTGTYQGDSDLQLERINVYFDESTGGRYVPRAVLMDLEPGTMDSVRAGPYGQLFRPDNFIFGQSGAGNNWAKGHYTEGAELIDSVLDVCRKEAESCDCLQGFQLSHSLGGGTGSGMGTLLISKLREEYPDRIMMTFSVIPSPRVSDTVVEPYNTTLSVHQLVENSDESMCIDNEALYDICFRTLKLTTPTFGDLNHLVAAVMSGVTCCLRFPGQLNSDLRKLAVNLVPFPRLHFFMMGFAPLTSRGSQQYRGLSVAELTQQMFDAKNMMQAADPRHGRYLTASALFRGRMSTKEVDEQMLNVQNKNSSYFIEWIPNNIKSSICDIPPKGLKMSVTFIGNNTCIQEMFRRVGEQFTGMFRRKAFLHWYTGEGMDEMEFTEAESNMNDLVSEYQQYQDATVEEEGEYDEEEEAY
UniProt P40306, whole entry, looked up: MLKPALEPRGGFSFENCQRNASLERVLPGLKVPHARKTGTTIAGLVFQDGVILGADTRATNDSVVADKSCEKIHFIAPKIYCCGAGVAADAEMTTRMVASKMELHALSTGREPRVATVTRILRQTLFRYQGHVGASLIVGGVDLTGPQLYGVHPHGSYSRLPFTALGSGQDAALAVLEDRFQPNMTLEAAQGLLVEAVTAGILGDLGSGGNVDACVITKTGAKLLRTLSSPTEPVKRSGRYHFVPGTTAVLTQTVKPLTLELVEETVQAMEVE
UniProt P49720, whole entry, looked up: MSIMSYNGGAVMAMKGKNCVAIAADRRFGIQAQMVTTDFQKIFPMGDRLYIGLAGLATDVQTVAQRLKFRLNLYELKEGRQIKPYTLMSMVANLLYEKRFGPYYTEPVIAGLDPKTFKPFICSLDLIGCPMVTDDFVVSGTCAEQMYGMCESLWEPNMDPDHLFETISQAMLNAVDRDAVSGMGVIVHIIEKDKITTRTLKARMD
UniProt O75351, 123-444 D135C limits assumed: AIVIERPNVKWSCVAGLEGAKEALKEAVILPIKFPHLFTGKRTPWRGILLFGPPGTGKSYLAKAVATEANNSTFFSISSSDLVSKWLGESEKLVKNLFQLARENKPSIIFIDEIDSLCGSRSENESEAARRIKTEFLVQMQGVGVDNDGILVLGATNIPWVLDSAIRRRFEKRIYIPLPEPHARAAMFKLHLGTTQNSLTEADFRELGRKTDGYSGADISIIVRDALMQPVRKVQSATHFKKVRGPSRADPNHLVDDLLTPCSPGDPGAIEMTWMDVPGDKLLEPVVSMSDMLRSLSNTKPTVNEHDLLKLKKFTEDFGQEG
UniProt P31421, 19-872 limits assumed: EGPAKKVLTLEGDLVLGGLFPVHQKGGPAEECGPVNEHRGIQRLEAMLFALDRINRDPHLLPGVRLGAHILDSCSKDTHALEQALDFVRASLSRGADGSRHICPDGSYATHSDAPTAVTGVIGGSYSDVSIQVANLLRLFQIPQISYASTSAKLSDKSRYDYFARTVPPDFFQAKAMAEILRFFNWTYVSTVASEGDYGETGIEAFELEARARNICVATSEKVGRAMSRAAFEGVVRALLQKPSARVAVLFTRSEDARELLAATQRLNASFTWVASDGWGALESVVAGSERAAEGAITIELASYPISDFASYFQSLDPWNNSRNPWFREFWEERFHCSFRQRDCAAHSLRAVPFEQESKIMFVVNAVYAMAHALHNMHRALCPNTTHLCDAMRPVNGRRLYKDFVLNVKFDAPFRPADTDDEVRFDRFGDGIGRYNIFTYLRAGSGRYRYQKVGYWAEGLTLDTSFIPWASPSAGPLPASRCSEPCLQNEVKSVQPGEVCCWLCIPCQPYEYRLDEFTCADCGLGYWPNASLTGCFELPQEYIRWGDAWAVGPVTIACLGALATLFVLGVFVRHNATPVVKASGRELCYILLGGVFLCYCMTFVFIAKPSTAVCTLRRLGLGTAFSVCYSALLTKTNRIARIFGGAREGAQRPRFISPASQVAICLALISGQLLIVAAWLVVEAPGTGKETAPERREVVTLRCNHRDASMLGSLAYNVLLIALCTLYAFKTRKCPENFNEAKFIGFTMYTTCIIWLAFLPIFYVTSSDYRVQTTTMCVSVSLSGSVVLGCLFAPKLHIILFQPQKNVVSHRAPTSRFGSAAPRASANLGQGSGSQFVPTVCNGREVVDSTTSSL
UniProt Q9UM73, whole entry, looked up: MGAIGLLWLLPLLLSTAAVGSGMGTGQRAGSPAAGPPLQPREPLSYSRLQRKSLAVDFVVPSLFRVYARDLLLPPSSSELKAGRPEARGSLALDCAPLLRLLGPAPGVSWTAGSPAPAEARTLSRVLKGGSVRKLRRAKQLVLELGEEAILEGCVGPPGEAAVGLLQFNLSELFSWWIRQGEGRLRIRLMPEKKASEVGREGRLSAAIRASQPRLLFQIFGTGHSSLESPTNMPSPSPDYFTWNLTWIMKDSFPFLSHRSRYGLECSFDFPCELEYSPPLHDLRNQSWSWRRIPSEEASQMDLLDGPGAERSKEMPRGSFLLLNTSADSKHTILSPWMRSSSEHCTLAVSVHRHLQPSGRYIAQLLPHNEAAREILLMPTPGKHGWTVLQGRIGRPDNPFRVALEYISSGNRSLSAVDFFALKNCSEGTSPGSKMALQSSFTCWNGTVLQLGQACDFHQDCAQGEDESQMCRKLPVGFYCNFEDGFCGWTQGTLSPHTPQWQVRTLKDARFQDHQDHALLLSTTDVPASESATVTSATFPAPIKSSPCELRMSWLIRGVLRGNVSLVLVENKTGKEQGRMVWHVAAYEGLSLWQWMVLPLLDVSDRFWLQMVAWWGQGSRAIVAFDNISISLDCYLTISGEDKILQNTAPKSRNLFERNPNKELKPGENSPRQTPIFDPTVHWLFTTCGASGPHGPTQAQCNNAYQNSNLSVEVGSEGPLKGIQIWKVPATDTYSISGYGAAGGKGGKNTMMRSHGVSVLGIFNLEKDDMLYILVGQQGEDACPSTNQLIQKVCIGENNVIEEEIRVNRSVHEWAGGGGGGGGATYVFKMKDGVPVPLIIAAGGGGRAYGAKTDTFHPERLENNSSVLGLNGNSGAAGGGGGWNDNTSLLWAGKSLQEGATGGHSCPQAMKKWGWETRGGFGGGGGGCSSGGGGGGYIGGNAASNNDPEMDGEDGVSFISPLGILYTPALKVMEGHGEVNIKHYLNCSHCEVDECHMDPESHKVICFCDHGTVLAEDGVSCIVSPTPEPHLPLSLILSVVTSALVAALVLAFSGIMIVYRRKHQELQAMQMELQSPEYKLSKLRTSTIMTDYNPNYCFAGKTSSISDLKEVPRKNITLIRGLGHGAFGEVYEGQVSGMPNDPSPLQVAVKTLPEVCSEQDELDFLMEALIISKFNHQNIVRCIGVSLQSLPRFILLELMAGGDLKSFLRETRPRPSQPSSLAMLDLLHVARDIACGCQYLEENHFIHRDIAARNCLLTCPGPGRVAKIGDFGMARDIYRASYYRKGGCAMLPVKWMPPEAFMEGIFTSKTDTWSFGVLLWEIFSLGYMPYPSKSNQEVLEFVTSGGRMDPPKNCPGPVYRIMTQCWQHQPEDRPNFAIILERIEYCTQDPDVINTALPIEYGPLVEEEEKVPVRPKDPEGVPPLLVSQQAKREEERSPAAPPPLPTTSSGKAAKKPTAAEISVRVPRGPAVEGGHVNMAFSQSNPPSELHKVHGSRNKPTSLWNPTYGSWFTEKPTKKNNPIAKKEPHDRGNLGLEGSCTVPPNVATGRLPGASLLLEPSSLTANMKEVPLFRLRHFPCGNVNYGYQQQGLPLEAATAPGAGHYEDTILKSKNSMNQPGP
UniProt Q9Y253, 1-437 limits assumed: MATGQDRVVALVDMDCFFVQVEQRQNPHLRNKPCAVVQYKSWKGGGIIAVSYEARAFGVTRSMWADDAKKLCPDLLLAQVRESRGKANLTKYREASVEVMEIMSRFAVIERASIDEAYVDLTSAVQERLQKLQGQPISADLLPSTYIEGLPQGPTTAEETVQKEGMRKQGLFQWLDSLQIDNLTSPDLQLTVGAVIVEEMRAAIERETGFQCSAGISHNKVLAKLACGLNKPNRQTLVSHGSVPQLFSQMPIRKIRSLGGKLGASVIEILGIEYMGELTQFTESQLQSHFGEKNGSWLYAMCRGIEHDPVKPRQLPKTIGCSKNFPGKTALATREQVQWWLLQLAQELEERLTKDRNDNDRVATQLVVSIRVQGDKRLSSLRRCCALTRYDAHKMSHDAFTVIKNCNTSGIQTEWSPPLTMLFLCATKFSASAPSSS
UniProt Q04206, whole entry: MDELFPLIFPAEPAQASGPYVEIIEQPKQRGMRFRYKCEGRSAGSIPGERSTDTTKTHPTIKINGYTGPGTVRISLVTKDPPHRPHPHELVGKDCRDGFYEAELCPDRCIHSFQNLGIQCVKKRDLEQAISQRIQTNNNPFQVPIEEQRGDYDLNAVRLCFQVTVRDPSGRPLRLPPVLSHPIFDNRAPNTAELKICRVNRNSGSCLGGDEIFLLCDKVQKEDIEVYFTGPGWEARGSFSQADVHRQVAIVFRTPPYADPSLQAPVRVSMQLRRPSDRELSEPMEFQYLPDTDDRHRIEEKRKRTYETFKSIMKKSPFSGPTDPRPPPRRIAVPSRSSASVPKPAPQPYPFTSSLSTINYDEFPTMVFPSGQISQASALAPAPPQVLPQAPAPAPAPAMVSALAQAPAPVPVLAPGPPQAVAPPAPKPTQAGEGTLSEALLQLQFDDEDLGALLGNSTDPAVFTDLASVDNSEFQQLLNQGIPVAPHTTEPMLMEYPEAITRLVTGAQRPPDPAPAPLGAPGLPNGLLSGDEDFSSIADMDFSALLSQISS
UniProt P11362, 22-822 limits assumed: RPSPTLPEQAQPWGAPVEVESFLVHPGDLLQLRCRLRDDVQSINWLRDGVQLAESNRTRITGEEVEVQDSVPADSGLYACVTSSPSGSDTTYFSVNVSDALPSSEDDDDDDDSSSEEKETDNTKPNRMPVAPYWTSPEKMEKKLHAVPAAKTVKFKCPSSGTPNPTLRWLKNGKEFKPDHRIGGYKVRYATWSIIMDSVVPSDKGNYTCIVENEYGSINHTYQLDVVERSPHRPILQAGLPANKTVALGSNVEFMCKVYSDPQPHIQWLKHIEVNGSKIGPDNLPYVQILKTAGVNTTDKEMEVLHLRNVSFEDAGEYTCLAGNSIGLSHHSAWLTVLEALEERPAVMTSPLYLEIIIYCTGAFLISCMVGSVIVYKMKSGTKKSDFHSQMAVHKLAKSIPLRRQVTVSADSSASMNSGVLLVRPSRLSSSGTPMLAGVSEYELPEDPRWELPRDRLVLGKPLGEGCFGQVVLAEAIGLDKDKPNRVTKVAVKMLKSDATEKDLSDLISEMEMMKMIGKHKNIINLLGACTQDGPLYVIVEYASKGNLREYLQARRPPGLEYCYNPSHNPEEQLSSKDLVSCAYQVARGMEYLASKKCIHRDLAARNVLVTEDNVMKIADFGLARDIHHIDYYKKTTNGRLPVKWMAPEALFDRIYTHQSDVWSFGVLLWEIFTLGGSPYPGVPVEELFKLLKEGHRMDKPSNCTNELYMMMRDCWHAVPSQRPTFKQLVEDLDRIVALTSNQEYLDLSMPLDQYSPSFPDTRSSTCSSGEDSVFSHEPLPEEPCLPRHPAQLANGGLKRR

| Compound | target | assay | system | setting | scale | IC50 |
| --- | --- | --- | --- | --- | --- | --- |
| N#Cc1ccccc1N1CCN(C(=O)CCCCCCCn2c(=S)[nH]c3ccccc3c2=O)CC1 | ESR1 | reporter gene, coactivator binding inhibitor, luciferase reporter | HEC-1 cells transfected with ERα | significant cytotoxicity, together with: estradiol 1 nM | – | 2.7 µM |
| COc1cc([C@@H]2c3cc4c(cc3[C@H](CC(C)C)[C@H]3COC(=O)[C@H]23)OCO4)cc(OC)c1OC | Tubulin alpha/beta heterodimer (Leishmania infantum, UniProt A0A381MCS3+A4HTR0) | tubulin polymerization, inhibitor | – | 37 °C, together with: tubulin 1.2 mg/mL | – | 1.14 µM and 1.1 µM |
| C[C@H](NC(=O)c1cc(C(=O)O)cc([C@H]2CCN[C@@H]2C(=O)O)c1)C(=O)O | AMPA receptor (rat) | binding, radioligand binding | rat cortical synaptosomes | together with: [3H]AMPA | – | 32 µM |
| CN1CCC[C@@H]1C(=O)N[C@@H](Cc1ccccc1)B(O)O | Proteasome subunit beta type-10 / Proteasome subunit beta type-3 (Homo sapiens, UniProt P40306+P49720) | β2i enzyme activity, inhibitor | – | together with: Ac-KQL-AMC | – | > 10 µM |
| CN1CC[C@H](c2c(O)cc(O)c3c(=O)cc(-c4ccccn4)oc23)[C@H](O)C1 | Cyclin-dependent kinase 2, part with cyclin A (CDK2, Homo sapiens, UniProt P24941) | enzyme activity, inhibitor | – | with cyclin A, together with: histone H1 substrate | – | 0.886 µM |
| C=CC(=O)Nc1cccc(Nc2nc3c(-c4ccccc4)cccn3n2)c1 | VPS4B (Homo sapiens, UniProt O75351, D135C) | ATPase activity, inhibitor | – | 30 min, together with: VTA1 stimulation, 1 mM ATP | – | 0.41 µM |
| COc1ccc(-n2cc(C(N)=O)c(=O)c3cc(CCc4cnc(C)nc4)ccc32)cc1 | Grm2 (Rattus norvegicus, UniProt P31421) | calcium mobilization, negative allosteric modulator | – | – | – | 0.136 µM |
| Cc1nc(-c2ccc(-c3csc(-c4cnccc4C(F)(F)F)n3)cc2)no1 | ALK (Homo sapiens, UniProt Q9UM73) | ELISA | – | – | – | 40 µM |
| O=C(Cn1c(-c2nccs2)nc2ccccc21)Nc1ccc(Br)cc1 | IMPDH2 (Homo sapiens, UniProt P12268) | enzyme activity, inhibitor | – | – | lower bound | ≥ 40 µM |
| O=C(OC(C(F)(F)F)C(F)(F)F)N1CCC(OC(c2ccc(F)cc2)c2ccc(F)cc2)CC1 | MGLL (Homo sapiens, UniProt Q99685) | inhibitor, fluorescence | – | together with: AHMMCE substrate | – | 0.0228 ± 0.0052 µM |
| Clc1ccc(C2(c3ccc(-c4ncnc5[nH]cnc45)cc3)CCNCC2)cc1 | LATS2 (Homo sapiens, UniProt Q9NRM7) | kinase activity, inhibitor, radiometric HotSpot | – | together with: ATP 10 µM | – | 0.039 µM |
| COc1ccc2[nH]cc(CCc3ccc(OS(C)(=O)=O)cc3)c2c1 | IDO1 (Homo sapiens, UniProt P14902) | enzyme activity, inhibitor | – | – | – | > 50 µM |
| O=C1NC(=O)C(=Cc2cn(Cc3ccc4ccccc4c3)c3ccccc23)C(=O)N1 | DNA polymerase eta (POLH, Homo sapiens, UniProt Q9Y253) | DNA polymerase activity, inhibitor, fluorescence | – | together with: dTTP 100 µM | – | 12 µM |
| O=C(Nc1ccc(-c2nc3ccccc3[nH]2)cc1)C1CCCC1 | Tyrosine-protein kinase SYK, with FCER1G (SYK, Homo sapiens, UniProt P43405) | protein binding, inhibitor, TR-FRET | – | – | – | > 100 µM |
| N#Cc1cnc(Nc2nc3ccccc3o2)nc1-c1ccc(Cl)cc1Cl | Grm5 (Rattus norvegicus, UniProt P31424) | calcium mobilization, negative allosteric modulator | – | together with: glutamate EC80 | – | 0.666 ± 0.238 µM |
| COC(=O)c1ccc(O[C@H]2CC[C@H](NC(=O)NC34CC5CC(CC(C5)C3)C4)CC2)cc1 (relative stereo) | EPHX2 (Homo sapiens, UniProt P34913) | enzyme activity, inhibitor, fluorescence | – | together with: CMNPC substrate | – | 0.0038 µM |
| CC(=O)O[C@@H]1c2coc3c2[C@@](C)(C2=C(C3=O)[C@@H]3CCC(=O)[C@@]3(C)CC2)[C@H]2O[C@@H]12 | RELA (Homo sapiens, UniProt Q04206) | DNA binding, inhibitor, ELISA-type binding | HeLa nuclear extract | together with: TNF-α | – | < 10 µM and 9.12 µM |
| CC(C)NC(=O)CSc1nc2ccc(NC(=O)CSc3ccc(Cl)cc3)cc2s1 | ESR1 | reporter gene, antagonist | HEC-1 transfected ERα luciferase reporter | – | – | 20 to 50 µM |
| Cc1ccc2oc(-c3c4c(N)n[nH]c(=O)c4nn3-c3ccc(Br)cc3)c(C)c2c1 | FGFR1 (Homo sapiens, UniProt P11362) | kinase activity, inhibitor, ELISA | – | – | – | 0.0446 ± 0.0009 µM |

A few entries again:
| Compound | target | assay | system | setting | scale | IC50 |
| --- | --- | --- | --- | --- | --- | --- |
| C=CC(=O)Nc1cccc(Nc2nc3c(-c4ccccc4)cccn3n2)c1 | VPS4B (Homo sapiens, UniProt O75351, D135C) | ATPase activity, inhibitor | – | 30 min, together with: VTA1 stimulation, 1 mM ATP | – | 0.41 µM |
| O=C1NC(=O)C(=Cc2cn(Cc3ccc4ccccc4c3)c3ccccc23)C(=O)N1 | DNA polymerase eta (POLH, Homo sapiens, UniProt Q9Y253) | DNA polymerase activity, inhibitor, fluorescence | – | together with: dTTP 100 µM | – | 12 µM |
| Cc1nc(-c2ccc(-c3csc(-c4cnccc4C(F)(F)F)n3)cc2)no1 | ALK (Homo sapiens, UniProt Q9UM73) | ELISA | – | – | – | 40 µM |
